Experimental data of several laboratories.
Protocols differ between the studies behind these lines. ± marks the error that the study gave. Values after ≈ are worked out from the molar mass of the structure shown.
UCHL1: Ubiquitin carboxyl-terminal hydrolase isozyme L1 (UCHL1, Homo sapiens, UniProt P09936)
Chain of UniProt P09936 (whole entry, looked up): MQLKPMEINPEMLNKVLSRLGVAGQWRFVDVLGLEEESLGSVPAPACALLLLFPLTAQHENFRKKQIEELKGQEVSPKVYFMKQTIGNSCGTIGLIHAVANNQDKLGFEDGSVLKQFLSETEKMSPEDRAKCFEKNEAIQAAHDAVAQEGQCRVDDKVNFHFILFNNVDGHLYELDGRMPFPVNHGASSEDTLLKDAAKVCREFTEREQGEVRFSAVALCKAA

OC[C@H]1O[C@@H](Oc2cc3c(O)cc(O)cc3[o+]c2-c2ccc(O)cc2)[C@H](O)[C@@H](O)[C@@H]1O
IC50 (HIV-1; viral infection; TZM-bl, NL4-3 (CXCR4-tropic); 48 h): > 100 µM

COC[C@@H](c1ccc(C(F)(F)F)cc1)N1CCN(C2(C)CCN(C(=O)c3c(C)ncnc3C)CC2)C[C@@H]1C
EC90 (HIV-1; viral load; HIV-infected patients; week 2): 0.056 µg/mL (≈ 0.105 µM)

CCCC(=O)OCSc1ccccc1C(=O)NCCn1ccc(=O)c2cc(C)ccc21
EC50 (HIV-1; viral replication, item: reverse transcriptase; human PBMC, 92HT599; 7 days): 1.45 ± 1.4 µM

COc1cc(Br)cc(/C=N/NC(=O)c2ccccn2)c1O
EC50 (HIV-1; viral cytopathic effect, MTT; MT4, IIIB): > 22 µM

C[C@@H]1O[C@@H](OC[C@H]2O[C@@H](Oc3cc4c(O)cc(O)cc4[o+]c3-c3cc(O)c(O)c(O)c3)[C@H](O)[C@@H](O)[C@@H]2O)[C@H](O)[C@H](O)[C@H]1O
IC50 (HIV-1; viral infection; TZM-bl, BaL (CCR5-tropic); 48 h): 97.5 µM

N#Cc1ccc(Nc2ncc(Cc3ccc(-c4ccccc4)cc3)o2)cc1
antiviral activity (HIV-1; protection from infection; MT-2, IIIB wild type; concentration not given): inactive

O=C(Cc1ccccc1F)N1CCC2(CC1)N(Cc1cccc(F)c1)C(=O)C[S+]2[O-] (centres unmarked)
labelling (UCHL1; covalent, intact protein LC-MS; 12.5 µM): 10.3%

C/C(=N\NC(=O)C1CCCCC1)c1ccccc1O
EC50 (HIV-1; viral cytopathic effect, MTT; MT4, IIIB): > 20 µM

O=C1CCc2cc(C(=O)CCl)ccc2N1
labelling (UCHL1; covalent, intact protein LC-MS; 12.5 µM): 31.5%

COc1cc(/C=C/C(=O)O)ccc1O
IC50 (HIV-1; viral infection; TZM-bl, BaL (CCR5-tropic); 48 h): > 100 µM

COc1cnc(-n2cnc(C)n2)c2[nH]cc(C(=O)C(=O)N3CCN(C(=O)c4ccccc4)CC3)c12
IC50 (HIV-1; viral replication, inhibitor, pseudovirus neutralization; TZM-bl, 3365.v2.c20; 48 h): 1.92 µM

COc1cc(/C=N/Nc2ccc(S(=O)(=O)Nc3ccccc3C(=O)O)cc2[N+](=O)[O-])ccc1O
EC50 (HIV-1; viral cytopathic effect, MTT; MT4, IIIB): > 10 µM

CCCC(=O)OCSc1ccccc1C(=O)NCCn1ccc(=O)c2cc(F)ccc21
EC50 (HIV-1; viral replication, item: reverse transcriptase; human PBMC, 92HT599; 7 days): 2.35 ± 0.38 µM

COc1ccnc2[nH]cc(C(=O)C(=O)N3CCN(C(=O)c4ccccc4)C[C@H]3C)c12
IC50 (HIV-1; viral replication, inhibitor, pseudovirus neutralization; TZM-bl, 398-F1_F6_20; 48 h): 2.29 µM

CCCC(=O)OCSc1ccccc1C(=O)NCCC(=O)NCCn1ccc(=O)c2cc3c(cc21)OCO3
EC50 (HIV-1; virus-induced cytopathic effect, inhibitor, XTT; CEM-SS, RF; 6 days): 80.9 ± 21.7 µM

OC[C@H]1O[C@@H](Oc2cc3c(O[C@@H]4O[C@H](CO)[C@@H](O)[C@H](O)[C@H]4O)cc(O)cc3[o+]c2-c2ccc(O)c(O)c2)[C@H](O)[C@@H](O)[C@@H]1O
IC50 (HIV-1; viral infection; TZM-bl, NL4-3 (CXCR4-tropic); 48 h): > 100 µM

CCCC(=O)OCSc1ccccc1C(=O)NCCn1cc(C(=O)NCc2cc(C)ccn2)c(=O)c2cc3c(cc21)OCO3
EC50 (HIV-1; virus-induced cytopathic effect, inhibitor, XTT; CEM-SS, RF; 6 days): 0.78 ± 0.23 µM

O=C(N/N=C/c1ccccc1O)c1cnccn1
EC50 (HIV-1; viral cytopathic effect, MTT; MT4, IIIB): > 40 µM

OC[C@H]1O[C@@H](O[C@H]2[C@H](Oc3cc4c(O)cc(O)cc4[o+]c3-c3ccc(O)c(O)c3)O[C@H](CO)[C@@H](O)[C@@H]2O)[C@H](O)[C@@H](O)[C@@H]1O
IC50 (HIV-1; viral infection; TZM-bl, NL4-3 (CXCR4-tropic); 48 h): 53.3 µM

O=C1C(O)=Cc2ccccc2/C1=N\Nc1ccc(Cl)cc1
EC50 (HIV-1; viral cytopathic effect, MTT; MT4, IIIB): > 40 µM

Cc1cccc(CNC(=O)c2cn(CCNC(=O)c3ccccc3Sc3c([N+](=O)[O-])ncn3C)c3cc4c(cc3c2=O)OCO4)n1
EC50 (HIV-1; viral replication; human PBMC, 92RW009): 15.5 ± 6.43 µM

O=c1c(O[C@@H]2O[C@H](CO)[C@@H](O)[C@H](O)[C@H]2O)c(-c2ccc(O)c(O)c2)oc2cc(O)cc(O)c12
IC50 (HIV-1; viral infection; TZM-bl, NL4-3 (CXCR4-tropic); 48 h): > 100 µM

CCCC(=O)OCSc1ccccc1C(=O)NCCn1cc(C(=O)NCc2cccc(C)n2)c(=O)c2cc3c(cc21)OCO3
EC50 (HIV-1; virus-induced cytopathic effect, inhibitor, XTT; CEM-SS, RF; 6 days): 0.48 ± 0.01 µM

C=CC/N=c1/scc(-c2ccccc2Br)n1/N=C/c1ccccn1
EC50 (HIV-1; viral cytopathic effect, MTT; MT4, IIIB): > 1 µM

OC[C@H]1O[C@@H](Oc2cc3c(O)cc(O)cc3[o+]c2-c2ccc(O)c(O)c2)[C@H](O)[C@@H](O)[C@H]1O
IC50 (HIV-1; viral infection; TZM-bl, NL4-3 (CXCR4-tropic); 48 h): 56 µM

CCCC(=O)OCSc1ccccc1C(=O)NCCn1ccc(=O)c2cc(C(F)(F)F)ccc21
EC50 (HIV-1; virus-induced cytopathic effect, inhibitor, XTT; CEM-SS, RF; 6 days): 3.9 ± 1.02 µM
